Assay results of several laboratories.
Numbered parts are unrelated; each lists some results of a single study. Values joined by “and” are separate records of one study, mostly repeats; a detail may differ.

Series 1 — cell line: mouse MPNST tumor cells; technique: high-content immunofluorescence imaging; measured: nuclear SOX9; tested at: 10 µM; time: 12 h; notes: mean of 2 replicates; baseline: DMSO control; reading: higher = more nuclear SOX9
For `CCCN1C[C@H](CSC)C[C@@H]2c3cccc4[nH]cc(c34)C[C@H]21`, “nuclear SOX9 intensity” read 132 % of DMSO.
`S=C(NC1CCCCC1)N1CCC(c2cnc[nH]2)CC1` — result for “nuclear SOX9 intensity”: 102 % of DMSO and 96 % of DMSO.
Under “nuclear SOX9 intensity”, `COc1ccc2c(c1)/C(=C/c1cnc[nH]1)C(=O)N2` is recorded as 138 % of DMSO.
`Oc1cc(Cl)ccc1Oc1ccc(Cl)cc1Cl` — result for “nuclear SOX9 intensity”: 123 % of DMSO.
Under “nuclear SOX9 intensity”, `O=c1[nH]c2ccccc2n1C1CCN(CCCC(c2ccc(F)cc2)c2ccc(F)cc2)CC1` is recorded as 167 % of DMSO.
For `CCN1C[C@]2(COC(=O)c3ccccc3N3C(=O)C[C@H](C)C3=O)CC[C@H](OC)[C@@]34[C@@H]5C[C@H]6[C@H](OC)[C@@H]5[C@](O)(C[C@@H]6OC)[C@](O)([C@@H](OC)[C@H]23)[C@@H]14`, “nuclear SOX9 intensity” read 95.7 % of DMSO.
For `C[N+]1(C)CCOC(O)(c2ccc(-c3ccc(C4(O)C[N+](C)(C)CCO4)cc3)cc2)C1` (centres unmarked), “nuclear SOX9 intensity” read 93.3 % of DMSO.

Series 2 — observed: AlphaScreen signal; technique: AlphaScreen counter screen; sample: His6 peptide without bromodomain; tested at: 50 µM; notes: assay interference check
`Cc1cccc(NC=C2C(=O)NC(=O)N(c3ccccc3)C2=O)c1` gave an inhibition of -3.6%.
For `Nc1nc(N2CCNCC2)c2nc[nH]c2n1`, the inhibition was 7.6%.
With `COc1cc(C2=C(c3c[nH]c4ccccc34)C(=O)NC2=O)cc(OC)c1OC` the inhibition was 57.9%.
`COc1ccc(N2C(=O)NC(=O)C(=CNc3ccc(F)cc3)C2=O)cc1` has an inhibition of 1.05%.

Series 3 — organism: Plasmodium berghei; mode: inhibitor; cells: Huh-7; strain: GFP-expressing, liver stage; tested at: 10 µM; time: 24 h; baseline: untreated control
`O=c1[nH]c2ccccc2n1C1CCN(CCCC(c2ccc(F)cc2)c2ccc(F)cc2)CC1` has an infection rate of 41.4%.
The infection rate of `C[C@@H]1O[C@@H](O[C@H]2C[C@@H](O)[C@]3(CO)[C@H]4[C@H](O)C[C@]5(C)[C@@H](C6=CC(=O)OC6)CC[C@]5(O)[C@@H]4CC[C@]3(O)C2)[C@H](O)[C@H](O)[C@H]1O` is reported as 47.6%.
With `CCC(=O)O[C@H]1CC[C@H]2[C@@H]3CCC4=CC(=O)CC[C@]4(C)[C@H]3CC[C@]12C` the infection rate was 87.7%.
`CC(C)CC(N(C)C)C1(c2ccc(Cl)cc2)CCC1` (centres unmarked) gave an infection rate of 96.1%.
For `CC(C)(N)Cc1ccccc1`, the infection rate was 14.6%.
`CC(CCc1ccccc1)NC(C)C(O)c1ccc(O)cc1` (centres unmarked) has an infection rate of 100%.

Series 4 — cell line: A-375; tested at: 100 µM; time: 36 h
`COc1ccc(CN(C(=O)[C@@H](N)Cc2c(C)cc(C(N)=O)cc2C)[C@@H](C)c2nc(-c3ccccc3)c[nH]2)cc1C(=O)O` gave a viability of 92.3%.
With `Oc1cc(Cl)ccc1Oc1ccc(Cl)cc1Cl` the viability was -1.04%.
The viability of `CN(C(=O)/C=C/c1ccoc1)[C@@H]1CC[C@@]2(O)[C@H]3Cc4ccc(O)c5c4[C@@]2(CCN3CC2CC2)[C@H]1O5` is reported as 102%.
With `CN[C@H]1C[C@@H](N)[C@H](O)[C@@H](O[C@@H]2O[C@H](CO)[C@H](O)[C@@H]3OC4(O[C@H]23)O[C@H]([C@@H](N)CO)[C@H](O)[C@H](O)[C@H]4O)[C@@H]1O` (some centres unmarked) the viability was 110%.
`C[C@@H](CO)NC(=O)[C@@H]1C=C2c3cccc4[nH]cc(c34)C[C@H]2N(C)C1` gave a viability of 115%.
With `O=C(O)c1nn(Cc2ccc(Cl)cc2Cl)c2ccccc12` the viability was 87.7%.
`Cc1ccc(NC(=O)C2(c3ccc4c(c3)OC(F)(F)O4)CC2)nc1-c1cccc(C(=O)O)c1` has a viability of 96%.
`c1ccc(NNc2ccccc2)cc1` gave a viability of 37%.
For `C[C@H]1CNCCc2ccc(Cl)cc21`, the viability was 110%.
`CCN(CC)C(C)C(=O)c1ccccc1` (centres unmarked) has a viability of 93.3%.
With `CN1C[C@H](C(=O)N[C@]2(C)O[C@@]3(O)[C@@H]4CCCN4C(=O)[C@H](Cc4ccccc4)N3C2=O)C=C2c3cccc4[nH]cc(c34)C[C@H]21` the viability was 38.8%.
For `CCCCC(C#N)(Cn1cncn1)c1ccc(Cl)cc1` (centres unmarked), the viability was 52.3%.

Repeated from above (series 4):
`CCN(CC)C(C)C(=O)c1ccccc1` (centres unmarked) has a viability of 93.3%.
With `CN1C[C@H](C(=O)N[C@]2(C)O[C@@]3(O)[C@@H]4CCCN4C(=O)[C@H](Cc4ccccc4)N3C2=O)C=C2c3cccc4[nH]cc(c34)C[C@H]21` the viability was 38.8%.
